Experimental data of several laboratories.
Protocols differ between the studies behind these lines. ± marks the error that the study gave. No end group written: not given here.
GNAI1: GNAI1 (Homo sapiens, UniProt P63096)
Chain of UniProt P63096 (whole entry, looked up): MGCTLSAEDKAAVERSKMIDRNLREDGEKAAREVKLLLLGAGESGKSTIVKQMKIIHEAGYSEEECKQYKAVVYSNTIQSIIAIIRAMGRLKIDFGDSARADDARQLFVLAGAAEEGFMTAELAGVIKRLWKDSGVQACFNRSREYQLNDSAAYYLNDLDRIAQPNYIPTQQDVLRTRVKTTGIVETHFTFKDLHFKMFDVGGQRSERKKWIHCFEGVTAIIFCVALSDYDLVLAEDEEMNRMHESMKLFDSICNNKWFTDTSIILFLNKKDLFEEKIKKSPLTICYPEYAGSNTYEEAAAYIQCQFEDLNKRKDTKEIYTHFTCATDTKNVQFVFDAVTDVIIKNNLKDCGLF
B1: EIF2AK2 K296R (Homo sapiens, UniProt P19525); sequence looked up; chain MAGDLSAGFFMEELNTYRQKQGVVLKYQELPNSGPPHDRRFTFQVIIDGREFPEGEGRSKKEAKNAAAKLAVEILNKEKKAVSPLLLTTTNSSEGLSMGNYIGLINRIAQKKRLTVNYEQCASGVHGPEGFHYKCKMGQKEYSIGTGSTKQEAKQLAAKLAYLQILSEETSVKSDYLSSGSFATTCESQSNSLVTSTLASESSSEGDFSADTSEINSNSDSLNSSSLLMNGLRNNQRKAKRSLAPRFDLPDMKETKYTVDKRFGMDFKEIELIGSGGFGQVFKAKHRIDGKTYVIRRVKYNNEKAEREVKALAKLDHVNIVHYNGCWDGFDYDPETSDDSLESSDYDPENSKNSSRSKTKCLFIQMEFCDKGTLEQWIEKRRGEKLDKVLALELFEQITKGVDYIHSKKLIHRDLKPSNIFLVDTKQVKIGDFGLVTSLKNDGKRTRSKGTLRYMSPEQISSQDYGKEVDLYALGLILAELLHVCDTAFETSKFFTDLRDGIISDIFDKKEKTLLQKLLSKKPEDRPNTSEILRTLTVWKKSPEKNERHTC
B2: HUB1 1-73 (Saccharomyces cerevisiae, UniProt Q6Q546); chain MIEVVVNDRLGKKVRVKCLAEDSVGDFKKVLSLQIGTQPNKIVLQKGGSVLKDHISLEDYEVHDQTNLELYYL
Chain of UniProt P10415 (whole entry, looked up): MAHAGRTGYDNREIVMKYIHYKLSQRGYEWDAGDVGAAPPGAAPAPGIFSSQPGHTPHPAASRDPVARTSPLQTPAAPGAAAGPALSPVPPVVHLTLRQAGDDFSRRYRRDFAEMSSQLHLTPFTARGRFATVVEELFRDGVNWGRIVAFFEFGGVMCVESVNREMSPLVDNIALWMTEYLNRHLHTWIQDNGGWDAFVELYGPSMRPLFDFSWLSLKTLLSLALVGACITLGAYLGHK
Chain of UniProt P06400 (whole entry, unmodified, looked up): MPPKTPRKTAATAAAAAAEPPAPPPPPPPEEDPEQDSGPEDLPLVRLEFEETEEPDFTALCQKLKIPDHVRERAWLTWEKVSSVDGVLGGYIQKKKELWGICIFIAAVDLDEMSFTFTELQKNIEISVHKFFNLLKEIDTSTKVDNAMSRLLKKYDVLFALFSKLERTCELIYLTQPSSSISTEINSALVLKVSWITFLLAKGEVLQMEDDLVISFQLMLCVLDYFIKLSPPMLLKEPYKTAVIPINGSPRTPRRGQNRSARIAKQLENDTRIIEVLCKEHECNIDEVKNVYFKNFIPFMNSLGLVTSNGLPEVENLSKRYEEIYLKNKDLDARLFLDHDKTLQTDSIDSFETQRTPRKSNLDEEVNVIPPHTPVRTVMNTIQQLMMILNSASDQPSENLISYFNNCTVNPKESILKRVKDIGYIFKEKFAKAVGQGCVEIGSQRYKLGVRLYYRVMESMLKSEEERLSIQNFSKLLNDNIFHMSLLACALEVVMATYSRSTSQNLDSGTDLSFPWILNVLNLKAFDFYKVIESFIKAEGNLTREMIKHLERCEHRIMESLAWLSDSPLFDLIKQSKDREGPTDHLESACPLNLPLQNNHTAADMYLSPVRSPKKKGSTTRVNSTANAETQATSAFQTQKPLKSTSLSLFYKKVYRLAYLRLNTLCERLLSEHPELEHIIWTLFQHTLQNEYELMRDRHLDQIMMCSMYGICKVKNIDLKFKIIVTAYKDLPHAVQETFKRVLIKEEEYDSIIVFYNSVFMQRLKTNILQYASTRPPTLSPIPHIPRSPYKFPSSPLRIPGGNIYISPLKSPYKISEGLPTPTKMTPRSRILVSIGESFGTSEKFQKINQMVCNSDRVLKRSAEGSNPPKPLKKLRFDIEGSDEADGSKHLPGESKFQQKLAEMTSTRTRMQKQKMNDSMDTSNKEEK
Chain of UniProt P35222 (whole entry, looked up): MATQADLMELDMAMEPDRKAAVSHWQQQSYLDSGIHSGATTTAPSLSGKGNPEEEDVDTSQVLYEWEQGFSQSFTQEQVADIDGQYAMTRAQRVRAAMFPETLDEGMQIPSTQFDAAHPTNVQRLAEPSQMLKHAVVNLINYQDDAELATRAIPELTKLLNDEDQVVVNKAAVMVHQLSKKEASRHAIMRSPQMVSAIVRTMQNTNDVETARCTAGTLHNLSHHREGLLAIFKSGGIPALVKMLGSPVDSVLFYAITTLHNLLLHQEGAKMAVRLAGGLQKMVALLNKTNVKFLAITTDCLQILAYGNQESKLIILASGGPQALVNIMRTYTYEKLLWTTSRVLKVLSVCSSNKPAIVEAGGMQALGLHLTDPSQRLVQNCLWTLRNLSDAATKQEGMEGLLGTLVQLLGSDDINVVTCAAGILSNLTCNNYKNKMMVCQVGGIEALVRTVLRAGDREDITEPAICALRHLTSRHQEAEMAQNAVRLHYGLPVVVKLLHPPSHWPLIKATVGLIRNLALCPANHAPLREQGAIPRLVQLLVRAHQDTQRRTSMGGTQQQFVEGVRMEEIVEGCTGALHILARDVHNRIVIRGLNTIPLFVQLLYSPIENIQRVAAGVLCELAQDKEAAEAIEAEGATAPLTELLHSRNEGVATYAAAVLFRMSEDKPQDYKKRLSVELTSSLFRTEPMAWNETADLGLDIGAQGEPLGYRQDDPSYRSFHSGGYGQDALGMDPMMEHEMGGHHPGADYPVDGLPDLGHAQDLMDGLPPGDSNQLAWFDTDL

Substance	tested on	test	test system	setting	scale	quantity	value
GVLRKTRHANILLFMGYST (BRAF 503-521 V511A)	BRAF kinase domain with dimer interface	fluorescence titration	peptide	–	–	Kd	4750 ± 1700 nM
STKKLSECLKRIGDELDSNMELQR (Bax BH3 peptide BH3 domain)	BCL2 1-211 (Homo sapiens, UniProt P10415)	ITC	peptide	14 °C, single-site model	–	Kd	23600 nM
M1 fragment (Influenza A virus)	HLA-DRA/HLA-DRB1*04:05 soluble recombinant (Homo sapiens)	ELISA	–	–	–	IC50	4470 nM
denileukin diftitox DT /IL-2 (Homo sapiens)	COPA/COPB1/COPB2/COPG1/COPE/COPZ1/ARCN1 (Bos taurus)	leucine incorporation	HuT102	endogenous COPI	–	cytotoxicity	10 pM
VLRKTAHVNILLFMG (BRAF 504-518 R509A)	BRAF kinase domain with dimer interface	fluorescence titration	peptide	–	–	Kd	2400 ± 350 nM
BILF1 H66A/F286A/H288A (Epstein-Barr virus)	GNAI1	IP3 accumulation	HEK293	–	reference: wild-type BILF1, higher = more signaling	relative Gi signaling	76%
RmS-6, glycosylated (Rhipicephalus microplus)	F10 factor Xa (Bos taurus)	chromogenic substrate hydrolysis, inhibitor	–	1 µM	–	protease inhibition	32.8%
GVLRKTRHVNILLFMG (BRAF 503-518)	BRAF kinase domain with dimer interface	fluorescence titration	peptide	–	–	Kd	1880 ± 360 nM
B1 (EIF2AK2 K296R)	PRKRA PACT domain 3	pull-down	–	–	reference: wild-type MBP-3, higher = more PKR bound	relative binding	100%
VARKTRHVNILLFMG (BRAF 504-518 L505A)	BRAF kinase domain with dimer interface	fluorescence titration	peptide	–	–	Kd	450 ± 30 nM
RmS-17, glycosylated (Rhipicephalus microplus) (sequence not shown)	F2 thrombin (Bos taurus)	chromogenic substrate hydrolysis, inhibitor	–	1 µM	–	protease inhibition	< 20%
melittin	–	CD titration	POPC 90% POPG 10% vesicles	pH 7.0, 25 °C	–	free energy of partitioning	-6.8 kcal/mol
DLYCYEQLN (E7 residues 21-29 (human papillomavirus))	RB1 55-787 del245-267/del582-642, phosphorylated by Cdk2-CycA (UniProt P06400)	Rb activation, E2F binding increase, activator, fluorescence polarisation	peptide	20 nM, added: E2F^TMR	–	EC50	190 ± 40 nM
GLSQEQLEHRERSLQTLRDIQRMLFP-NH2 (BCL9 350-375 (Homo sapiens); C-terminal amide)	CTNNB1 (Homo sapiens, UniProt P35222)	AlphaScreen or HTRF	peptide	–	–	Kd	230 nM
NSRQTDR	–	–	peptide, human polyclonal IgM RF CLAU	concentration not given, 5 µg/mL mAb II-481 coated, added: RF at 50% max binding concentration	–	inhibition	0%
BILF1 H288A (Epstein-Barr virus)	GNAI1	IP3 accumulation	HEK293	–	reference: wild-type BILF1, higher = more signaling	relative Gi signaling	98.9%
AALEAKICHQIEYYFGDF (La peptide 11-28 (UniProt P05455); FITC label; sequence looked up)	SSB 29-408 (Homo sapiens, UniProt P05455)	SEC	peptide	2 h, pH 7.5, 37 °C, added: FITC-LAP 28 µM	–	binding	binds
B2 (HUB1 1-73)	SNU66 N-terminal domain (Saccharomyces cerevisiae)	SEC	–	–	–	molecule per partner	2 Hub1 molecules

Excerpt of the above:
Substance	tested on	test	test system	setting	scale	quantity	value
melittin	–	CD titration	POPC 90% POPG 10% vesicles	pH 7.0, 25 °C	–	free energy of partitioning	-6.8 kcal/mol
AALEAKICHQIEYYFGDF (La peptide 11-28 (UniProt P05455); FITC label; sequence looked up)	SSB 29-408 (Homo sapiens, UniProt P05455)	SEC	peptide	2 h, pH 7.5, 37 °C, added: FITC-LAP 28 µM	–	binding	binds
